Results of several laboratories.
Parts stem from different laboratories: compare values within a part only.

Study 1
Target: Sal-like protein 4, full length isoform B (SALL4, Homo sapiens, UniProt Q9UJQ4-2, residues 1-616)
Method: universal PBM
Molecule type: double-stranded DNA, one strand shown
Medium: in vitro
Concentration: not given
Notes: 8-mer, flanks averaged, mean of replicates
Direction: higher = stronger binding
Construct (chain): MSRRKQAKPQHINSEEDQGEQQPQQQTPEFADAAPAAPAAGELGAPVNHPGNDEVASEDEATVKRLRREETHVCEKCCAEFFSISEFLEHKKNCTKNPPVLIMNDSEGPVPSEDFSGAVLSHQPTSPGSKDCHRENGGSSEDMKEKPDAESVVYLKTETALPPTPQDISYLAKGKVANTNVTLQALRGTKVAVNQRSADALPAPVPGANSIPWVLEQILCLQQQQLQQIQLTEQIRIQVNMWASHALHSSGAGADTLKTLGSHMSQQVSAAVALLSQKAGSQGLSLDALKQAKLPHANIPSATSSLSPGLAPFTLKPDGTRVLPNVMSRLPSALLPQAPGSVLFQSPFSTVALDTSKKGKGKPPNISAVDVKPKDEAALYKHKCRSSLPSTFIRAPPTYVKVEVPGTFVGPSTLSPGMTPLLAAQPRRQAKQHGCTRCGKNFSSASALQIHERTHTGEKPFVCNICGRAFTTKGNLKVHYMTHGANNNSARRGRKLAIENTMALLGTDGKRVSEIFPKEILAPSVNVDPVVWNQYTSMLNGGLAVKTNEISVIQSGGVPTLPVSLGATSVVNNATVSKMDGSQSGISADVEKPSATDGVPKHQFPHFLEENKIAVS
Oligonucleotide	E-score
ACACTAAA	0.192
AGACTGTA	0.093
CCAATGAA	-0.118
ACTCCGCA	-0.236
CTCTTACC	-0.0446
ACGCCCTG	-0.194
GCTGGCTA	-0.261
AACAATTC	0.119

Study 2
Target: POU domain, class 5, transcription factor 1, POU domain (Pou5f1, Mus musculus, UniProt P20263, residues 131-289)
UniProt P20263, sequence (131-289, looked up): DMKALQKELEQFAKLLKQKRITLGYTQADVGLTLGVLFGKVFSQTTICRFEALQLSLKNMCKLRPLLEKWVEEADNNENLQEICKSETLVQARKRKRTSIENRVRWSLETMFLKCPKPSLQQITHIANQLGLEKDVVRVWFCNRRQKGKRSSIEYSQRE
Method: Spec-seq
Molecule type: double-stranded DNA, one strand shown
Medium: in vitro
Concentration: not given
Notes: whole probe, mean of replicates
Baseline: not given
Direction: lower = stronger binding
All sequences stand within: GAGTCGTCTCGTCAGCAC … CCGTAGAGCACTCAGGTC
Oligonucleotide	relative binding energy [ln ratio]
ATGGCCAT	0.783
ATGCGCGG	0.391
ATGCCATA	0.49
ATTCGTAT	0.216
ATGCTGAT	-0.368
ATGCATTA	-0.946
CTAATAAT	0.151
ATGCGCCG	0.611
CTATTAAT	0.232
ATGCTAGC	0.576

Study 3
Target: Interferon regulatory factor 5, full length, phosphomimetic (IRF5, Homo sapiens, UniProt Q13568-2, residues 1-514, S451D/S453D/S456D/S462D)
Method: protein-binding microarray
Molecule type: double-stranded DNA, one strand shown
Medium: in vitro
Concentration: 940 nM top
Notes: 60-bp whole probe
With: salmon DNA 0.4 mg/ml
Baseline: random background probes
Direction: higher = stronger binding
All sequences stand within: GCCTAGCAC … GTCTTGATTCGCTTGACGCTGCTG
Oligonucleotide	fitted relative affinity [z-score]
TTAGGTTTCAACTATCGGTTAGTGCTA	3.74
GACGATTTCAGCTTCGAGACGTGCTAG	-0.135
ATAGGTATCGGACTGGGTTAGTGCTAG	2.96
TTAGGTTTCGGGTATCGGTTTGTGCTA	11.1
GAGGGTATCGACTTTCGGGACGTGCTA	2.94
TCAGATATCAGTCTCGATTAGTGCTAG	3.15

Other studies, line by line
Substance	target	test	system	conditions	scale	quantity	result
PhoQ, residues 284 288 289 292 302 303 SLANIV	PhoP, residues 12 14 15 18 19 VQGLL (Escherichia coli, UniProt P23836)	Sort-seq, refers to: YFP reporter	E. coli	PhoQ-PhoP variant library, with: 10 µM Mg2+	baseline: high Mg2+ state, higher = stronger signaling	fold induction	16

Some of these lines once more (study 2):
Oligonucleotide	relative binding energy [ln ratio]
CTATTAAT	0.232
ATGCTAGC	0.576
